Results from different studies.
Every numbered part comes from another study and shows a few of its results, in no order. Substitutions count along the parent as printed.

Series 1 — technique: RNAcompete; form: RNA; matrix: in vitro; concentration: 20 nM; setting: 7-mer, probes averaged, single round; reference: mean of 7-mers; reading: higher = stronger binding
Target: PABPC1L2, full length, GST fusion (mouse, UniProt A0ABA7IW68)
Residues (chain): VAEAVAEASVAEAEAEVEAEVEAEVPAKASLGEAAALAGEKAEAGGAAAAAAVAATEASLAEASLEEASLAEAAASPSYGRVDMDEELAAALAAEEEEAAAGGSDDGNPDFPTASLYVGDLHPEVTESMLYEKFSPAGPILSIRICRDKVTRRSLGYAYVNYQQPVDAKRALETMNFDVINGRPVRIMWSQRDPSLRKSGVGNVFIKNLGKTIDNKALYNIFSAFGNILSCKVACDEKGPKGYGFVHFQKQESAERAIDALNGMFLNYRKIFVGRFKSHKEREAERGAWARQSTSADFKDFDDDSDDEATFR
Strand | 7-mer Z-score
UGAACCU | -0.213
UGUCAAG | -0.311
UUCGACU | -0.351
CGUCGGU | -0.387
AUCUCGG | -0.0808
GCCGGGU | -0.124
UAGAAGG | 0.106
ACUAAAA | 5.05

Series 2 — technique: RNA Bind-n-Seq; form: RNA; matrix: in vitro; concentration: 20 nM; setting: 6-mer, flanks averaged, single round; added: 150 mM KCl; reference: input library; reading: higher = stronger binding
Target: TAR DNA-binding protein 43, full length, His tag (TARDBP, Homo sapiens, UniProt Q13148, residues 1-414)
Strand | 6-mer enrichment (R)
UGUGCG | 1.67
AUGUGC | 0.908
GUGUCC | 0.835
UCCUCG | 0.604
AUUCAC | 0.563
AAUAAU | 1.45
ACGAGC | 0.852
AUUAUU | 0.62

Other studies, line by line — H2BC12L: H2BC12L (Homo sapiens, UniProt P57053)
P1: PafA, mature enzyme, eGFP fusion (Elizabethkingia meningoseptica, UniProt Q9KJX5); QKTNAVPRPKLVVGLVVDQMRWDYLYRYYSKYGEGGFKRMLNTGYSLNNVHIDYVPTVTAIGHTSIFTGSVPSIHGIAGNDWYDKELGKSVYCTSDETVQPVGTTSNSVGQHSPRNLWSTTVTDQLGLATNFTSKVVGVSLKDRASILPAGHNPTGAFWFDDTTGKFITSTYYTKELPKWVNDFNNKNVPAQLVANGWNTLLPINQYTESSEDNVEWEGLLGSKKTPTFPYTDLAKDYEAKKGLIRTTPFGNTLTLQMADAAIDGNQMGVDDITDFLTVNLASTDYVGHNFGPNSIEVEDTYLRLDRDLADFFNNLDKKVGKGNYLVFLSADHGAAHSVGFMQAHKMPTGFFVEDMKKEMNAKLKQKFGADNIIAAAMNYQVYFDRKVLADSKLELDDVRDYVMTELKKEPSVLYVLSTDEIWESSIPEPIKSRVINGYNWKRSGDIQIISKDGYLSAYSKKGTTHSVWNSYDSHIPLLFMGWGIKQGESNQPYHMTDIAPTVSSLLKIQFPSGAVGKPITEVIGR
Molecule | tested on | test | test system | conditions | how to read | measurement | result
H2AX (Homo sapiens, UniProt P16104) | H2BC12L | cross-linking MS |  | hits only |  | interaction screen | cross-linked
P1 A335G | tungstate, free oxyanion | microfluidic competitive inhibition | in vitro, cell-free expressed | not given, derived from inhibition constants, unchanged parent 2230 nM | lower = stronger binding | oxyanion analog dissociation constant | 1680 nM
H2AZ1 (Homo sapiens, UniProt P0C0S5) | H2BC12L | cross-linking MS |  | hits only |  | interaction screen | cross-linked

A few entries again (series 1):
Strand | 7-mer Z-score
UGUCAAG | -0.311
UAGAAGG | 0.106
GCCGGGU | -0.124
